Results of several laboratories.
Each numbered part is a random draw from the data of one study; scales do not carry over between parts. Positions count from the first letter of the parent shown.

Series 1
Target: Transcription factor Sp1 (SP1, Homo sapiens, UniProt P08047, residues 1-785, full length assumed)
UniProt P08047, sequence (whole entry, looked up): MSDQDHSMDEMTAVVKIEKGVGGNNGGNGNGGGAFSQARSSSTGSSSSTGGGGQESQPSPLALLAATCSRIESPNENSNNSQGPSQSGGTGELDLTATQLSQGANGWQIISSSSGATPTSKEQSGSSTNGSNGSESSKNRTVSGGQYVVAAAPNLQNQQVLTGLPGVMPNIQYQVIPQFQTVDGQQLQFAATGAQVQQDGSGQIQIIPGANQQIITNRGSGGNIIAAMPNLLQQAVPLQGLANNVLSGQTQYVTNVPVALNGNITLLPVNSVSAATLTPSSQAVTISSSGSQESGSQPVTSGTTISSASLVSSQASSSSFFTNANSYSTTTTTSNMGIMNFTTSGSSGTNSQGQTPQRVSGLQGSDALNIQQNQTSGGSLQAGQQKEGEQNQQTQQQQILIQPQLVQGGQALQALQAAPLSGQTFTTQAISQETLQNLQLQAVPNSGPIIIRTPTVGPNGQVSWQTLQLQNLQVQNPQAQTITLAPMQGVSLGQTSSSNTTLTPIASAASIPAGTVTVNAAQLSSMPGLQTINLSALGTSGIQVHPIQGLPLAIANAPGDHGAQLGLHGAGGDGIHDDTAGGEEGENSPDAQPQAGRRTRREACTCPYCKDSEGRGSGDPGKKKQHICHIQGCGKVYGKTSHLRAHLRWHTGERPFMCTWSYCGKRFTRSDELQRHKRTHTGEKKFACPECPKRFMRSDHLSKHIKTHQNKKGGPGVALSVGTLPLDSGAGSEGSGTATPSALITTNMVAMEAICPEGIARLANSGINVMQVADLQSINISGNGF
Method: protein-binding microarray
Molecule type: double-stranded DNA, one strand shown
Medium: in vitro
Concentration: not given
Notes: k-mer, scored over probes, only values ≥0.25
Direction: higher = stronger binding
Measurement: E-score
ACATGTAT: 0.301
GGGAATGA: 0.263
CCAAAACC: 0.251
AAGATACA: 0.267
TAATACTA: 0.27
AACTGTAG: 0.257
CGTATACG: 0.334

Series 2
Target: CCNB1, cyclin fold, Cln2 fusion (human)
Method: yeast growth competition, sequencing
Medium: yeast
Notes: strong parent motif
Reference: not given
Direction: higher = stronger binding
Measurement: normalised enrichment score
Starting sequence: RBL2 docking peptide (human); STTRRRLFVENDS
STTRRRLFVENDY [S13Y]: 1.22
STTERRLFVENDS [R4E]: 0.659
STTWRRLFVENDS [R4W]: -0.511
STTRRRLFVTNDS [E10T]: 0.174
STTRRRLEVENDS [F8E]: 1.08
YTTRRRLFVENDS [S1Y]: 1.06
STTRRRLFVRNDS [E10R]: 0.367

Series 3
Target: Interferon regulatory factor 7, full length, phosphomimetic (IRF7, Homo sapiens, UniProt Q92985, residues 1-503, S471D/S472D/S475D/S476D/S477D/S483D/S484D/S487D)
Method: protein-binding microarray
Molecule type: double-stranded DNA, one strand shown
Medium: in vitro
Concentration: 2200 nM top
Notes: 60-bp whole probe
Added: salmon DNA 0.4 mg/ml
Reference: random background probes
Direction: higher = stronger binding
Measurement: fitted relative affinity
Shared flanks, not repeated: GCCTAGCAC … GTCTTGATTCGCTTGACGCTGCTG
Residues (chain): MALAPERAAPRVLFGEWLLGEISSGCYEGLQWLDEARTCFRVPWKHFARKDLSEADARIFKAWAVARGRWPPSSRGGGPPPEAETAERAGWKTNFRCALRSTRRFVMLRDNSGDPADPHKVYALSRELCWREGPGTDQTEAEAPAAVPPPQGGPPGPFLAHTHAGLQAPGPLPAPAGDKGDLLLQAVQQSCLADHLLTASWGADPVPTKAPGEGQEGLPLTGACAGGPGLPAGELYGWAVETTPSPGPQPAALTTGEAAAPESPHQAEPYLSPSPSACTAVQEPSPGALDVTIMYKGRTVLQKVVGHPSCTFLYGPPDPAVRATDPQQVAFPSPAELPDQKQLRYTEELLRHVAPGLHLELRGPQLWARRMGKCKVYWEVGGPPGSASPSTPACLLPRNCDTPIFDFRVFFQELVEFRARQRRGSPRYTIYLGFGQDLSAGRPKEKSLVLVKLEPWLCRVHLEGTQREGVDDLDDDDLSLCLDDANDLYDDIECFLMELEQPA
GGCGGACTGCTACTGCTGACGTGCTAG: -0.91 z-score
GATGAATAAAGCGTTGCTGCGTGCTAG: -0.439 z-score
TTAGGTATCCTGCTCCTTTAGTGCTAG: 1 z-score
GTCGAACTGAGTATCGAGACGTGCTAG: 0.182 z-score
TTAGGTTTCGGGTTTTGGTTAGTGCTA: 7.51 z-score
GACGGTCTGGGTATCGGGACGTGCTAG: -0.545 z-score
TCAGAACTGGGGTTTCGATTAGTGCTA: 2.15 z-score
TCCATTTTCTGAATGCTACTGTGCTAG: 4.7 z-score
CTAGAACTGAGACTGGATTAGTGCTAG: -0.363 z-score
AACACAAACCCGCTGGAGTTGTGCTAG: 0.158 z-score

Single results of other studies
PhoQ, residues 284 288 289 292 302 303 SACGEM — fold induction (PhoP, residues 12 14 15 18 19 SEGLL (Escherichia coli, UniProt P23836); Sort-seq, item: YFP reporter; E. coli; PhoQ-PhoP variant library, added: 10 µM Mg2+; reference: high Mg2+ state, higher = stronger signaling): 12.5
